Results gathered from unrelated publications.
Compare with care: the assays were run in different laboratories. ± gives the spread as reported.
Matrix protein 2: Matrix protein 2 (Influenza A virus, UniProt P0DOF5)
Sequence of UniProt P0DOF5 (whole entry, looked up): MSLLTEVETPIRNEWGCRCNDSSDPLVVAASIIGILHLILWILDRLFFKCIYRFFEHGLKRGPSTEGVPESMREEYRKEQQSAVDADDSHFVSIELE
Rv1885c: Secreted chorismate mutase (Rv1885c, Mycobacterium tuberculosis, UniProt P9WIB9)
Sequence of UniProt P9WIB9 (whole entry, looked up): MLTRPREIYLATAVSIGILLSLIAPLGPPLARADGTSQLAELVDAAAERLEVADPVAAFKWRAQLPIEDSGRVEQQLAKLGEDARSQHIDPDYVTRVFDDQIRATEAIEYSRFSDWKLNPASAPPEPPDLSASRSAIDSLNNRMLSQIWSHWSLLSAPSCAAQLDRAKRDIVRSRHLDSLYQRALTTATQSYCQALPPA
Response regulator PhoP: Response regulator PhoP (Mycobacterium tuberculosis, UniProt P71814)
lasR: Transcriptional activator protein LasR (lasR, Pseudomonas aeruginosa, UniProt P25084)
Sequence of UniProt P25084 (whole entry, looked up): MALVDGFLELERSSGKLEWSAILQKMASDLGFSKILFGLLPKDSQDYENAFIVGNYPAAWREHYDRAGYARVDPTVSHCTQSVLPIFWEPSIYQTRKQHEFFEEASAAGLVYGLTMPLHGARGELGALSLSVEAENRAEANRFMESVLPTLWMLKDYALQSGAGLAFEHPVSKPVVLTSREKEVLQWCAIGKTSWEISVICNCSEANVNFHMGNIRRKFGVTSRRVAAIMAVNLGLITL
Sequence of UniProt O60656 (whole entry, looked up): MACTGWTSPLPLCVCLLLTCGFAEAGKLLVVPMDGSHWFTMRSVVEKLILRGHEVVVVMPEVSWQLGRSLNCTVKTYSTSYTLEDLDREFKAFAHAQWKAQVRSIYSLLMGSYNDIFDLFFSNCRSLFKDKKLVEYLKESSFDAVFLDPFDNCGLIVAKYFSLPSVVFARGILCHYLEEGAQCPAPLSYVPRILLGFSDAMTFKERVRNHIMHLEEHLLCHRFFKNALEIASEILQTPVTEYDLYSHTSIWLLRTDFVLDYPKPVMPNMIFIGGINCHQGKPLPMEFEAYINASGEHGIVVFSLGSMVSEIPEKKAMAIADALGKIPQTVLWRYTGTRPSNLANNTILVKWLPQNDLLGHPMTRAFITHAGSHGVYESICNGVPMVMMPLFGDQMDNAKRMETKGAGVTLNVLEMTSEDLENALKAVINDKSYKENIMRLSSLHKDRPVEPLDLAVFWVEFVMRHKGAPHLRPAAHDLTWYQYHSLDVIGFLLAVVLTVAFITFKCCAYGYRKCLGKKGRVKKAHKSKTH
Sequence of UniProt P68400 (whole entry, looked up): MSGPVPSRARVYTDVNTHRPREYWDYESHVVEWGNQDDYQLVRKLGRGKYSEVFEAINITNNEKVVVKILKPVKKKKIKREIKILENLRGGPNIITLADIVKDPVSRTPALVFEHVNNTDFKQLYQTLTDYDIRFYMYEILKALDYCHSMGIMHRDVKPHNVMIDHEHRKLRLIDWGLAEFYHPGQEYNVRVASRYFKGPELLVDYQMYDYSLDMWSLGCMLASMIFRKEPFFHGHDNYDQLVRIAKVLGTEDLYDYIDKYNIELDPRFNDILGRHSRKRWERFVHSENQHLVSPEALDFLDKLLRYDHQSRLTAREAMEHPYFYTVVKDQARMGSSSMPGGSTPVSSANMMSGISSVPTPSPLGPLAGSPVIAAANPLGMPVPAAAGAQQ
Sequence of UniProt P9WNS3 (whole entry, looked up): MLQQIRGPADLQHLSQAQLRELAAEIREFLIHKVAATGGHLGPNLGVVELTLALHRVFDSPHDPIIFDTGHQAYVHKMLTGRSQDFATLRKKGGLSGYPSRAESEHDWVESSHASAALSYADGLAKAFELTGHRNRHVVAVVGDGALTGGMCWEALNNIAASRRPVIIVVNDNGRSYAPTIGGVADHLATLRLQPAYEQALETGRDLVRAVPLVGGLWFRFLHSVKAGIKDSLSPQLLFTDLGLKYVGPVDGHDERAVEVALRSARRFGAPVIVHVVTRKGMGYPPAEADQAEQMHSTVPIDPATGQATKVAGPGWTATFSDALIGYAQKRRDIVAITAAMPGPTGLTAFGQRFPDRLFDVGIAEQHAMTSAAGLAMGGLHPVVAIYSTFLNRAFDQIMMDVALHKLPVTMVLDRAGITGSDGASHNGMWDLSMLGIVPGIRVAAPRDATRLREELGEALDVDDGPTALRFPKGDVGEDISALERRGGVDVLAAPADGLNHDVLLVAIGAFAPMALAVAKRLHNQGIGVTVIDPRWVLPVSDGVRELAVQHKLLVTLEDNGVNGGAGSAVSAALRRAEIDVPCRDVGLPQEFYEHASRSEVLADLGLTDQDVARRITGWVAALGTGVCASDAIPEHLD
Sequence of UniProt P21729 (whole entry, looked up): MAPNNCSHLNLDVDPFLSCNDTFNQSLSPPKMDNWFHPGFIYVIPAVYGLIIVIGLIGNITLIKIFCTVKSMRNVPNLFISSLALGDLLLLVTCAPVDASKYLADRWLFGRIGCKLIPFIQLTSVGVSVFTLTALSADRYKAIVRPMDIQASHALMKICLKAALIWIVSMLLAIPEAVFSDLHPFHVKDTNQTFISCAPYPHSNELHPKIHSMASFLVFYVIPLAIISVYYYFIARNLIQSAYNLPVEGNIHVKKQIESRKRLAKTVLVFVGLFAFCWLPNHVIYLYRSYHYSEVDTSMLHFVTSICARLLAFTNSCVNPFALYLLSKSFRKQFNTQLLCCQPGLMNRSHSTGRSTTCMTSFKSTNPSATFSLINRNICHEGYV

Structure (SMILES) | tested on | test | test system | setting | how to read | quantity | value
c1cc(C2CC2)sc1CNC12CC3CC(CC(C3)C1)C2 | Matrix protein 2 | ion current, two-electrode voltage clamp | – | 100 µM | – | inhibition | 7%
CC(=N)N1CC23C4C5CC5C5C4C4C2C2CC2C4C53C1 (stereo not shown) | Matrix protein 2 | enzyme activity, inhibitor | – | 100 µM, pH 5.5 | – | inhibition | 20%
Nc1ncc(/C=N/NC(=O)Cc2c[nH]c3ccccc23)cn1 | 1-deoxy-D-xylulose-5-phosphate synthase (Mycobacterium tuberculosis, UniProt P9WNS3) | enzyme activity, inhibitor | – | 200 µM | – | inhibition | 47%
CCCNC(=O)[C@H](CC(C)C)NC(=O)[C@H](Cc1c[nH]cn1)NC(=O)CNC(=O)[C@@H](NC(=O)[C@H](C)NC(=O)[C@H](Cc1c[nH]c2ccccc12)NC(=O)[C@H](CCC(N)=O)NC(=O)[C@@H](Cc1ccccc1)NC(=O)CCCCCNC(=O)CN1CCN(CC(=O)O)CCN(CC(=O)O)CCN(CC(=O)O)CC1)C(C)C [indium-111 labelled] | Gastrin-releasing peptide receptor (Mus musculus, UniProt P21729) | biodistribution | CF-1 mice, spleen | intravenous, 1 h, unblocked | – | tissue uptake | 0.17 ± 0.03 %ID/g
COc1cc(C(=O)NCCOCCOCCOCCNC(=O)c2ccc([18F])nc2)ccc1NC(=O)C1NC(CC(C)(C)C)C(C#N)(c2ccc(Cl)cc2F)C1c1cccc(Cl)c1F (stereo not shown) | SJSA-1 tumour model | – | host not given, muscle | 2 h, tumour-bearing | – | tracer uptake | 0.53 %ID/g
CC/C=C\C/C=C\C/C=C\C/C=C\C/C=C\C/C=C\CCC(=O)Nc1ccn(C2OC(CO)C(O)C2(F)F)c(=O)n1 (stereo not shown) | HOP-92 | NCI60 screen | – | – | – | CC50 | > 100 µM
Cc1ccc(S(=O)(=O)n2c(CN3C(=O)C(=O)c4ccccc43)cc3ccccc32)cc1 | Rv1885c | enzyme activity, inhibitor | – | 30 µM | – | inhibition | 67.7%
O=C1c2ccccc2-c2c1c1c(O)cc(-c3ccccc3)cc1n2Cc1ccccc1 | Casein kinase II subunit alpha, with CK2 beta subunit (CSNK2A1, Homo sapiens, UniProt P68400) | – | – | 10 µM | – | inhibition | 48%
CCC1(CC)C2CC3CC(C2)CC1(N(C)C)C3 | Matrix protein 2 | enzyme activity, inhibitor | – | 100 µM, pH 5.5 | – | inhibition | 24%
Cc1cc(CNC23CC4CC(CC(C4)C2)C3)sc1Br | Matrix protein 2 | ion current, two-electrode voltage clamp | – | 100 µM | – | inhibition | 52%
Cc1ccc(S(=O)(=O)n2c(CN3C(=O)C(=O)c4ccccc43)cc3cc(C)cc(C)c32)cc1 | Rv1885c | enzyme activity, inhibitor | – | 30 µM | – | inhibition | 71.6%
Brc1csc(CNC23CC4CC(CC(C4)C2)C3)c1 | Matrix protein 2 | ion current, two-electrode voltage clamp | – | 100 µM | – | inhibition | 58%
N=C(N)NCCC[C@@H]1NC(=O)[C@H](CCCCNC(=O)CCOCCOCCOCCOCCNC(=O)CN2CCN(CC(=O)O)CCN(CC(=O)O)CCN(CC(=O)O)CC2)NC(=O)[C@@H](Cc2ccccc2)NC(=O)[C@H](CC(=O)O)NC(=O)CNC1=O [indium-111 labelled] | – | – | female athymic nude mice, brain | intravenous, 3 µCi, 1 h, U-87 MG glioma xenograft | – | tissue uptake | 0.08 ± 0.02 %ID/g
O=S(=O)(O)CC1CSSCC(CS(=O)(=O)O)SS1 (stereo not shown) | Response regulator PhoP | DNA binding | – | 100 µM | – | inhibition | > 50%
Nc1ncc(CNC23CC4CC(CC(C4)C2)C3)s1 | Matrix protein 2 | ion current, inhibitor, TEVC | Xenopus laevis oocytes | 100 µM, 2 min, wild type | – | inhibition | inactive
CCCCCc1cc(O)c2c(c1)OC(C)(C)C1CCC(C)=CC21 (single isomer, unassigned; (-)) | UGT1A9 (Homo sapiens, UniProt O60656) | inhibitor | HEK293 overexpressing UGT1A9, recombinant UGT1A9 microsomes | 100 µM, together with: propofol glucuronidation | baseline: no-inhibitor control | inhibition | 74%
O=S(=O)(O)c1ccc(-c2cnc(-c3ccc(-c4ncc(-c5ccc(S(=O)(=O)O)cc5)o4)cc3)o2)cc1 | Response regulator PhoP | DNA binding | – | 100 µM | – | inhibition | > 50%
CN(C)CC1CCCCC1(O)c1cccc(O)c1 (stereo not shown) | human P-glycoprotein | – | Caco-2 TC7 monolayer | 100 µM, 3 h, apical pH 7.4, basolateral pH 7.4, together with: cyclosporine A 10 µM | – | Papp A-to-B | 11.7 ± 1.1 ×10⁻⁶ cm/s
CN1CC23C4CCC5C4C4C2CCC4C53C1 | Matrix protein 2 | enzyme activity, inhibitor | – | 100 µM, pH 5.5 | – | inhibition | 4.1%
CCCc1cn(-c2ccc(C(=O)N[C@H]3CCOC3=O)cc2)nn1 | lasR | reporter gene, antagonist | – | 100 µM, together with: OdDHL 10 nM | – | inhibition | 46%
Ic1ccc(CNC23CC4CC(CC(C4)C2)C3)s1 | Matrix protein 2 | ion current, two-electrode voltage clamp | – | 100 µM | – | inhibition | 91%
N=C(N)NCCC[C@@H]1NC(=O)[C@H](CCCCNC(=O)CC[C@H](NC(=O)CCOCCOCCOCCOCCNC(=O)CN2CCN(CC(=O)O)CCN(CC(=O)O)CCN(CC(=O)O)CC2)C(=O)NCCCC[C@@H]2NC(=O)[C@@H](Cc3ccccc3)NC(=O)[C@H](CC(=O)O)NC(=O)CNC(=O)[C@H](CCCNC(=N)N)NC2=O)NC(=O)[C@@H](Cc2ccccc2)NC(=O)[C@H](CC(=O)O)NC(=O)CNC1=O [indium-111 labelled] | – | – | athymic nude mice, female, U-87 MG glioma xenograft, tumour and kidney | intravenous, 4 h | baseline: tumour over kidney | tumour to tissue ratio | 1.39 ± 0.18
CN[C@](C)(C[18F])C(=O)O | MDA-MB-468 tumour model | – | host not given, bone | 30 min, tumour-bearing | – | tracer uptake | 2.4 %ID/g
Cc1ccc(CNC23CC4CC(CC(C4)C2)C3)s1 | Matrix protein 2 | ion current, two-electrode voltage clamp | – | 100 µM | – | inhibition | 84%
CCCCc1cn(-c2cccc(C(=O)N[C@H]3CCOC3=O)c2)nn1 | lasR | reporter gene, antagonist | – | 100 µM, together with: OdDHL 10 nM | – | inhibition | 36%

Excerpt of the above:
Structure (SMILES) | tested on | test | test system | setting | how to read | quantity | value
c1cc(C2CC2)sc1CNC12CC3CC(CC(C3)C1)C2 | Matrix protein 2 | ion current, two-electrode voltage clamp | – | 100 µM | – | inhibition | 7%
CCCCCc1cc(O)c2c(c1)OC(C)(C)C1CCC(C)=CC21 (single isomer, unassigned; (-)) | UGT1A9 (Homo sapiens, UniProt O60656) | inhibitor | HEK293 overexpressing UGT1A9, recombinant UGT1A9 microsomes | 100 µM, together with: propofol glucuronidation | baseline: no-inhibitor control | inhibition | 74%
CCCNC(=O)[C@H](CC(C)C)NC(=O)[C@H](Cc1c[nH]cn1)NC(=O)CNC(=O)[C@@H](NC(=O)[C@H](C)NC(=O)[C@H](Cc1c[nH]c2ccccc12)NC(=O)[C@H](CCC(N)=O)NC(=O)[C@@H](Cc1ccccc1)NC(=O)CCCCCNC(=O)CN1CCN(CC(=O)O)CCN(CC(=O)O)CCN(CC(=O)O)CC1)C(C)C [indium-111 labelled] | Gastrin-releasing peptide receptor (Mus musculus, UniProt P21729) | biodistribution | CF-1 mice, spleen | intravenous, 1 h, unblocked | – | tissue uptake | 0.17 ± 0.03 %ID/g
N=C(N)NCCC[C@@H]1NC(=O)[C@H](CCCCNC(=O)CC[C@H](NC(=O)CCOCCOCCOCCOCCNC(=O)CN2CCN(CC(=O)O)CCN(CC(=O)O)CCN(CC(=O)O)CC2)C(=O)NCCCC[C@@H]2NC(=O)[C@@H](Cc3ccccc3)NC(=O)[C@H](CC(=O)O)NC(=O)CNC(=O)[C@H](CCCNC(=N)N)NC2=O)NC(=O)[C@@H](Cc2ccccc2)NC(=O)[C@H](CC(=O)O)NC(=O)CNC1=O [indium-111 labelled] | – | – | athymic nude mice, female, U-87 MG glioma xenograft, tumour and kidney | intravenous, 4 h | baseline: tumour over kidney | tumour to tissue ratio | 1.39 ± 0.18
